# Experimental data from different studies.
# Every numbered part comes from another study and shows a few of its results, in no order. Changes are numbered by the printed parent chain.

# Sample 1 — technique: DHFR PCA, dose-response; medium: yeast; notes: Hill fit, mean, not affinity; with: (+)-ABA, dose series; reading: lower = more sensitive
# Target: ABI1, truncated, D143A, DHFR fusion (Arabidopsis thaliana, UniProt P49597)
# Starting sequence: PYL1, truncated, DHFR fusion (Arabidopsis thaliana, UniProt Q8VZS8); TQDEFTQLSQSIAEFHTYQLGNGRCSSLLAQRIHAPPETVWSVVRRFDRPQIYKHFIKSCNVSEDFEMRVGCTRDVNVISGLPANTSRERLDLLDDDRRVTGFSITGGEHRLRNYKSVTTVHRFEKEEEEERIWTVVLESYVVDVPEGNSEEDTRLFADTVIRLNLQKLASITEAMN
Substitution,ABA EC50
G107T,96.8 µM
Y115W,70.1 µM
G148C,35.3 µM
V44L,2.8 µM
T160Y,4.33 µM
F15C,25.8 µM
N22R,3.81 µM
F66P,18.5 µM
L8W,4.88 µM
E174M,12.2 µM
L164G,22.7 µM
H16G,830 µM
N61Q,2.83 µM
E127N,2.2 µM
R155Q,6.87 µM
R155N,13.6 µM
G107A,21.2 µM
L82M,14.1 µM
D48S,53.2 µM
G71N,34.6 µM
N61F,2.39 µM
T17Y,27.2 µM
L94A,286 µM

# Sample 2 — technique: RNA Bind-n-Seq; molecule type: RNA; medium: in vitro; concentration: 200 nM; notes: whole 134-nt RNA, ends assumed; with: 150 mM KCl; reference: input library; reading: higher = stronger binding
# Target: Ras GTPase-activating protein-binding protein 1, full length (G3BP1, Homo sapiens, UniProt Q13283)
# UniProt Q13283, sequence (whole entry, looked up): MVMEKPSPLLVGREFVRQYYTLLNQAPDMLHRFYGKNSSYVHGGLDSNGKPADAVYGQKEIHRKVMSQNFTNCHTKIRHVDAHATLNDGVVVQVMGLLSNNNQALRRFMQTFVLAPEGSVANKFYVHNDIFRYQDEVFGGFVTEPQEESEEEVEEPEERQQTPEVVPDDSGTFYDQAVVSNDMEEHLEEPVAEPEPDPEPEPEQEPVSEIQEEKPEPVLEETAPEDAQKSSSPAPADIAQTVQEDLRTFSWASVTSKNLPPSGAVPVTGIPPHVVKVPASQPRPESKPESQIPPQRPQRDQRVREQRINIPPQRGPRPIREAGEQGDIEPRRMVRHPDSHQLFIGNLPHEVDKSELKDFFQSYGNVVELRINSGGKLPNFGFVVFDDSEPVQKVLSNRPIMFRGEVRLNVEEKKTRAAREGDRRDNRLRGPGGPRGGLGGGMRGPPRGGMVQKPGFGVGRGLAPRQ
Strand,log2 enrichment
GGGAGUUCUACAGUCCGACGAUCUCCUGUGCUACACAUCGUAUGUACCGAAUCGGGUUUUUGGGUUUUUGGGAAAAAAAGGGAAAGUAUUAUGUUACGCCGUUCGGAUCUGCAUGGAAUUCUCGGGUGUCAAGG,-0.371
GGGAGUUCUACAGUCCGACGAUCCCUCAAGUCCUGUGCUACACAUCGUAUGUACCGAAUCGGCGGGGCGGCGGGGAAAGUAUUAUGUUACGCCGUUCGGAUCUGCACUUCCAGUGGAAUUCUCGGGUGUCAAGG,0.267
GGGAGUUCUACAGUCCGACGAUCACCAUGCAGGUGUGCAUCUUUGGGAAGUGGGGCAAGGGGGGGAUAGGGAGGGGGGUAACACUUUGGGAACAGGUGGUCCCAGGUCGUUUCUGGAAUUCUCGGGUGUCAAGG,0.931
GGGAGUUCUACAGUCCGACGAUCAGUCCUGUGCUACACAUCGUAUGUACCGAAUCGGUUUUUUUGGAAAAAGGAAAAAGGAAAGUAUUAUGUUACGCCGUUCGGAUCUGCACUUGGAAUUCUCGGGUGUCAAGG,-1.6
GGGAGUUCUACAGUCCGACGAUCGAGCAAAGAGCCAUUCAGCUUCAGUCUUUACAUACCAUGAAUAAAACAUUAAAACAUCAUAUGGAGAAGUUUACAUGGUGAUUGUUCACCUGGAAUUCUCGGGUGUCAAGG,-0.599
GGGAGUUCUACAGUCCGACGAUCCAAGUCCUGUGCUACACAUCGUAUGUACCGAAUCGGGUUUUGGUUUUGGUUUUGGAAAGUAUUAUGUUACGCCGUUCGGAUCUGCACUUCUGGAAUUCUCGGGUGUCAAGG,-1.16
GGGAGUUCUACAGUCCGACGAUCCCUCAAGUCCUGUGCUACACAUCGUAUGUACCGAAUCGGUUUUUGGAGGUGGAAAGUAUUAUGUUACGCCGUUCGGAUCUGCACUUCCAGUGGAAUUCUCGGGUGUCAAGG,-0.0834
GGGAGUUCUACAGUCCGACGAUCUCCUGUGCUACACAUCGUAUGUACCGAAUCGGGCCCCCGGGGCCCCCGGGGCCCCCGGGAAAGUAUUAUGUUACGCCGUUCGGAUCUGCAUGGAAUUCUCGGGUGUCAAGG,0.167
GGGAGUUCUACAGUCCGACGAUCUCAAGUCCUGUGCUACACAUCGUAUGUACCGAAUCGGCCCGGGCCCGGGCCCGGAAAGUAUUAUGUUACGCCGUUCGGAUCUGCACUUCCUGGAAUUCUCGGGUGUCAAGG,-1.39
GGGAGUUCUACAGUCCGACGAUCCACAGACAACACGCACCCACACAGACACAGAGGGAAGGGGUUGGGAUAGGGACAGGGUGCACAGCAGGGCGGGGUAGGACCCCAGCCCCUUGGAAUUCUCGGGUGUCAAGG,1.76
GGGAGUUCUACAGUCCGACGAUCUACCUUUAGAGGAGGAUCUGAUGGAUAUGGCAGUGGACGUGGAUUUGGGGAUGGCUAUAAUGGGUAUGGAGGAGGACCUGGAGGUGGCAAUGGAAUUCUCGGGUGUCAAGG,0.37
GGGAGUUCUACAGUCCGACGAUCCCUGUGCUACACAUCGUAUGUACCGAAUCGGUUUUUUGGGGUUUUUUGGGUUUUUUGGGGAAAGUAUUAUGUUACGCCGUUCGGAUCUGCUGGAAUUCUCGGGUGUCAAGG,-0.899
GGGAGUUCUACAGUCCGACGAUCUCCUGUGCUACACAUCGUAUGUACCGAAUCGGAAAAAAGGGAAAAAAGGAAAAAAGGGGAAAGUAUUAUGUUACGCCGUUCGGAUCUGCAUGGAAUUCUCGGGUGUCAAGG,-1.02
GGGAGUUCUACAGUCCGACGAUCAGUCCUGUGCUACACAUCGUAUGUACCGAAUCGGGGAAAGGGGUUUUUGGGGAGGGGAAAGUAUUAUGUUACGCCGUUCGGAUCUGCACUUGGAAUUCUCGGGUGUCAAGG,0.784

# Sample 3 — target: CRIPT, C-terminal peptide; technique: DHFR complementation, deep sequencing; medium: yeast; reference: wild type; reading: higher = weaker binding
# Notes: single substitutions, model-inferred values
# Starting sequence: ERBIN, PDZ domain 1 (human); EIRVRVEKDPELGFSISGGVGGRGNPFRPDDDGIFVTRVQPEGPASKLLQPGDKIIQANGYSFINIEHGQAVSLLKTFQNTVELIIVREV; partner TKNYKQTSV
Substitution,binding free energy change
P51Y,0.321 kcal/mol
F35M,1.2 kcal/mol
V6I,0.0834 kcal/mol
I55D,0.843 kcal/mol
V36A,0.521 kcal/mol
D30L,0.184 kcal/mol
D32V,0.225 kcal/mol
E83G,0.166 kcal/mol
L48N,0.248 kcal/mol

# Other studies, line by line
Substance,target,assay,system,conditions,scale,quantity,result
"PhoQ, residues 284 288 289 292 302 303 ASTSDA","PhoP, residues 12 14 15 18 19 HEGLL (Escherichia coli, UniProt P23836)","Sort-seq, measured: YFP reporter",E. coli,"PhoQ-PhoP variant library, with: 10 µM Mg2+","reference: high Mg2+ state, higher = stronger signaling",fold induction,14.3

# Repeated from above (sample 2):
Strand,log2 enrichment
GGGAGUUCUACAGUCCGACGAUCUCAAGUCCUGUGCUACACAUCGUAUGUACCGAAUCGGCCCGGGCCCGGGCCCGGAAAGUAUUAUGUUACGCCGUUCGGAUCUGCACUUCCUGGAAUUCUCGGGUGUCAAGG,-1.39
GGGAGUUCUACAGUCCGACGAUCCACAGACAACACGCACCCACACAGACACAGAGGGAAGGGGUUGGGAUAGGGACAGGGUGCACAGCAGGGCGGGGUAGGACCCCAGCCCCUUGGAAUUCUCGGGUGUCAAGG,1.76
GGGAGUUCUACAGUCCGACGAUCUACCUUUAGAGGAGGAUCUGAUGGAUAUGGCAGUGGACGUGGAUUUGGGGAUGGCUAUAAUGGGUAUGGAGGAGGACCUGGAGGUGGCAAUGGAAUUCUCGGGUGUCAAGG,0.37
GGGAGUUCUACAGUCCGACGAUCCCUGUGCUACACAUCGUAUGUACCGAAUCGGUUUUUUGGGGUUUUUUGGGUUUUUUGGGGAAAGUAUUAUGUUACGCCGUUCGGAUCUGCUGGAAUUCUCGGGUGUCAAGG,-0.899
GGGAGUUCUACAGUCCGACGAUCUCCUGUGCUACACAUCGUAUGUACCGAAUCGGAAAAAAGGGAAAAAAGGAAAAAAGGGGAAAGUAUUAUGUUACGCCGUUCGGAUCUGCAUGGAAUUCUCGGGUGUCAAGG,-1.02
